Results of several laboratories.
Compare with care: the assays were run in different laboratories. ± marks the error that the study gave. In brackets after ≈: the same amount, converted by molar mass.

C#CC[C@H](NC(=O)[C@H](Cc1ccccc1)NC(=O)CCNC(=S)Nc1ccc2c(c1)C(=O)OC21c2ccc(O)cc2Oc2cc(O)ccc21)C(=O)N[C@@H](C)C(=O)N[C@@H](CC(C)C)C(=O)N[C@@H](CC(=O)O)C(=O)N[C@@H](Cc1c[nH]c2ccccc12)C(=O)N[C@@H](CO)C(=O)N[C@@H](Cc1c[nH]c2ccccc12)C(=O)N[C@@H](CC(C)C)C(=O)N[C@@H](CCC(N)=O)C(=O)N[C@H](C(=O)N[C@@H](CCC(=O)O)C(N)=O)[C@@H](C)O
hydrodynamic diameter (dynamic light scattering; PBS/DMSO; 125 nM): 494 ± 144 nm

Cn1cncc1-c1c(F)cncc1NC(=O)c1c(N)nn2cc(F)cnc12
grade ≥3 creatinine increased (human patients; oral, 150 mg twice daily, 4 days per 3 days): 0%

O=C(Nc1ccccc1)C1CCN(C(=O)Oc2cccnc2)CC1
change in High score (psychotropic effects VAS; healthy women; 60 mg; relative to: pre-dose baseline, direction not given): 6.5

C1=Cc2nc1cc1ccc([n-]1)c(C1CC1)c1nc(cc3ccc([n-]3)c2C2CC2)C=C1.CC(=O)[O-].[Mn+3]
plasma concentration (LC-MS/MS; Sprague-Dawley rat, plasma; oral gavage, dose not given, 120 min, individual rat Rat1): 96 ng/mL

CC(C)C[C@H](NC(=O)[C@H](CCCCN)NC(=O)OCC1c2ccccc2-c2ccccc21)C(=O)N[C@H](C(=O)N[C@@H](Cc1ccccc1)C(=O)N[C@@H](Cc1ccccc1)C(=O)N[C@@H](CCCCN)C(=O)NCC(=O)N[C@@H](Cc1ccccc1)C(=O)N[C@@H](C)C(=O)N[C@@H](Cc1c[nH]c2ccccc12)C(=O)N[C@@H](CC(N)=O)C(=O)N[C@H](C(=O)N[C@H]1CSSC[C@@H](C(=O)N[C@@H](Cc2c[nH]cn2)C(=O)N[C@@H](CCCNC(=N)N)C(=O)N[C@@H](CCCNC(=N)N)C(=O)N[C@@H](C)C(=O)N[C@@H](CC(N)=O)C(N)=O)NC(=O)[C@H](C(C)C)NC(=O)[C@H](CCCNC(=N)N)NC(=O)[C@H](C(C)C)NC(=O)CNC(=O)[C@H](CC(N)=O)NC(=O)[C@H](CCCNC(=N)N)NC(=O)[C@H](Cc2ccc(O)cc2)NC(=O)[C@H](C(C)C)NC1=O)C(C)C)C(C)C
platelet distribution width (ICR mice, blood; intraperitoneal, 10 mg/kg, day 5): 15.35 ± 0.06%

Cn1c(=O)c2[nH]cnc2n(C)c1=O
blood-to-plasma ratio (human whole blood; 1000 ng/mL, 60 min, 37 °C): 0.86 ± 0.006

C[C@]1(CO)Cc2ncn(-c3ccc(C#N)c(Cl)c3)c2C(=O)O1
Cmax (human, Chinese, plasma; 20 mg single dose, geometric mean): 1090 nM

CO[C@H]1C[C@@H]2CC[C@@H](C)[C@@](O)(O2)C(=O)C(=O)N2CCCC[C@H]2C(=O)O[C@H]([C@H](C)C[C@@H]2CC[C@@H](OC(=O)NCCOCCOCCOCCOCCOCCOCCOCCOCCC(=O)N3CCc4cc(Cn5nc(-c6ccc7oc(N)nc7c6)c6c(N)ncnc65)ccc4C3)[C@H](OC)C2)C[C@@H](O)[C@H](C)/C=C(\C)[C@@H](O)[C@@H](OC)C(=O)[C@H](C)C[C@H](C)/C=C/C=C/C=C/1C
abdominal pain incidence (patients with advanced solid tumours; intravenous, 16 mg weekly, grade 3 or higher): 0%

O[C@H]1CCCN[C@@H]1CCCn1cnc2c(Cl)c(Cl)ccc21
AUC(0-12) (healthy CYP2D6 EM and UM, plasma; oral, 150 mg single dose): 606 ng·h/mL

N[C@@H]1c2ccccc2OC12CCN(c1cnc3c(N4CCCc5ncccc54)n[nH]c3n1)CC2
dose-limiting toxicity (advanced metastatic solid tumour patients; oral, 60 mg once daily, cycle 1, 21 days): 0%

COc1ccc(C(=O)Nc2ccc3c(c2)C=CCP(=O)(O)O3)cc1
kinetic solubility (HPLC-UV; 50 mM PBS; 16 h, pH 7.4, 25 °C, upper limit 2.5 mg/mL): 2430 µg/mL (≈ 7.04 mM)

CCS(=O)(=O)Nc1ccc(Oc2ccc(F)cc2F)c(-c2cn(C)c(=O)c3[nH]ccc23)c1
treatment-emergent adverse events (serious febrile neutropenia; human, relapsed/refractory AML; oral, dose not given): 16%

C=CC(=O)N1CCC(CNc2ncnc(N)c2-c2ccc(Oc3ccccc3)cc2)CC1
NOAEL (mouse; GLP pivotal toxicology): 1000 mg/kg

COc1cc2c(Oc3ccc4[nH]c(C)cc4c3F)ccnc2cc1OCC1(N)CC1
grade 3 Myalgia (paediatric recurrent refractory sarcoma; concentration not given, whole group): 0%

For quick reference, copied from above:
COc1cc2c(Oc3ccc4[nH]c(C)cc4c3F)ccnc2cc1OCC1(N)CC1
grade 3 Myalgia (paediatric recurrent refractory sarcoma; concentration not given, whole group): 0%
